Measured values of several laboratories.
Protocols differ between the studies behind these lines.
Target: Sodium-dependent serotonin transporter (SLC6A4, Homo sapiens, UniProt P31645)
UniProt P31645, sequence (whole entry, looked up): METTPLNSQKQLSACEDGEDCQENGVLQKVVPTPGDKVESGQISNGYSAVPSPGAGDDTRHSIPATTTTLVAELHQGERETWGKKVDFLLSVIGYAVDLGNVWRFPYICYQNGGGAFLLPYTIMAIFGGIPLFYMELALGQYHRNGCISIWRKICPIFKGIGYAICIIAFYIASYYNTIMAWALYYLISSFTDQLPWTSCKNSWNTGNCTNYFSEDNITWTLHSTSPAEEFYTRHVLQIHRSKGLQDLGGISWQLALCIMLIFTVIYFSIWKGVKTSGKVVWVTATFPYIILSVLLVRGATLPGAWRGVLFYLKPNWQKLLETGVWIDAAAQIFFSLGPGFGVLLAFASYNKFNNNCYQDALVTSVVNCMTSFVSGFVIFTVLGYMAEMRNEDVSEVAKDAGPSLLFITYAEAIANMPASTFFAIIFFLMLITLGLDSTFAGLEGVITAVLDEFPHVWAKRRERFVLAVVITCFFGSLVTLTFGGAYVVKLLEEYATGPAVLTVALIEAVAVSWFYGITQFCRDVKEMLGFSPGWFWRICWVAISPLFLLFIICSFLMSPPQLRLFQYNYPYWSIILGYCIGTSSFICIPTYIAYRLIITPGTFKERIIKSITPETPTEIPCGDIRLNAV

For CC(=O)c1cnc(N)nc1N1CC[C@H]1c1nn2ccc(Cl)c2c(=O)n1-c1ccccc1, the inhibition was 17% (ligand displacement, radioligand; 10 µM).
For CC(C)Cn1c(SCC(=O)N2CCc3ccccc3C2)nc2cc(Cl)ccc2c1=O, the inhibition was -14% (ligand displacement, radioligand; 10 µM).
The inhibition of COc1ccc(S(=O)(=O)N2CCc3ccccc3C2)cc1N1CCN(C(=O)c2ccc(F)cc2C(F)(F)F)CC1 is reported as -5.3% (ligand displacement, radioligand; 1 µM).
With Cc1cccc(O[C@H]2CCC[C@@H](C(C)CNCc3ccncc3)C2)c1 (relative stereo) the inhibition was 87% (cell-free assay; 10 µM).
The inhibition of CNC(=O)C12CC1C(n1cnc3c(NC)nc(C#Cc4ccccc4Cl)nc31)C(O)C2O (centres unmarked) is reported as -34% (radioligand binding; HEK293; 10 µM, together with: [3H]citalopram; negative = enhanced binding).
CO[C@@H](C)c1c(NC(=O)Nc2cnc(-n3nccn3)c(C(F)(F)F)c2)cnc2sc(C)nc12 gave an inhibition of -3.5% (ligand displacement, radioligand; 10 µM).
For Cn1ccc2cc(-n3c(=O)[nH]c4sc5c(c4c3=O)CCCC5)ccc21, the inhibition was 4% (transporter uptake, inhibitor; 10 µM).
With CCC(=O)N(C)c1ccc(Cl)c(Cl)c1 the inhibition was less than 10% (binding, radioligand binding; 10 µM).
With C[Si](C)(C)C[C@@H](CN)CC(=O)O the inhibition was 3% (ligand displacement, radioligand; 75 µM).
With CCOC(=O)C12CC1C(n1cnc3c(NC)nc(C#Cc4ccc(F)s4)nc31)C(O)C2O (centres unmarked) the inhibition was 6% (ligand displacement, radioligand; 10 µM).
O=C1c2sc(-c3ccc(N4CCC(CO)CC4)nc3F)nc2CCN1c1cccnc1 has an inhibition of -3% (ligand displacement, radioligand; 1 µM).
The inhibition of COc1ccc(C(=O)Nc2c(-c3cccs3)nc3ccccn23)cc1 is reported as less than 50% (ligand displacement, radioligand; 10 µM).
With COCC(=O)N1CCc2cc(-c3csc(NC(=O)c4cc(OC)cc(OC)c4)n3)ccc21 the inhibition was 9% (10 µM).
Cc1[nH]nc2c1N=C(c1ccccc1Cl)c1cnc(N3CCOCC3)cc1N2 has an inhibition of -4% (cell-free assay; 10 µM).

For quick reference, copied from above:
For CC(C)Cn1c(SCC(=O)N2CCc3ccccc3C2)nc2cc(Cl)ccc2c1=O, the inhibition was -14% (ligand displacement, radioligand; 10 µM).
For Cn1ccc2cc(-n3c(=O)[nH]c4sc5c(c4c3=O)CCCC5)ccc21, the inhibition was 4% (transporter uptake, inhibitor; 10 µM).
